Experimental data pooled from the literature.
Each line is one published result; not all experiments were run side by side. Several values in a cell are separate wells, animals, samples, runs or records. Numbers after ± are the reported error.

`O=C(N[C@@H](Cc1coc2ccccc12)B(O)O)[C@@H]1C[C@H]2CC[C@@H]1O2` has a T/C of -53% (tumour growth; MM1.S, mouse, MM1.S multiple myeloma xenograft; oral, 10 mg/kg every 2 days, 48 h).
`COC1OC(C)C(O)C(OC2OC(C)C(O)C(OC3OC(C)C(O)C(OS(=O)(=O)O)C3OS(=O)(=O)O)C2OS(=O)(=O)O)C1OS(=O)(=O)O` (stereo not shown) — result for “thrombin time prolongation”: 0.9 fold (human plasma; 128 µg/mL; relative to: control).
For `COC1CN([C@H]2CC[C@H]([C@@]3(C)Oc4c(Cl)cc(C(=O)NCc5c(SC)cc(C)[nH]c5=O)c(C)c4O3)CC2)C1`, “log2 fold change” read 1.67 (RNA-seq, measured: RASL10A; human, whole blood; dose not given, 24 h; relative to: pretreatment baseline).
`NC[C@@H](C(=O)Nc1ccc(-c2cn[nH]c2)cc1)c1ccccc1` has an IOP of 29.8 mmHg (tonometry; NZW rabbit, magnetic bead-induced ocular hypertension; ocular, 0.1%, 6 h).
Under tumour weight, `O=c1c(-c2ccc(Cl)c(CN3CCOCC3)c2)coc2cc(O)ccc12` is recorded as “decreased” (castrated mice, VCaP xenograft, DHEA pellets; oral, 10 or 30 mg/kg/day).
`CC(=O)[O-].O.O.O.O.[Co+2].[O-]c1ccc(Br)cc1C=NCCN1CCOCC1` has an inhibition of 40.8% (nitric oxide scavenging; 200 µM).
Under “thrombin time prolongation”, `COC1OC(C)C(OC2OC(C)C(O)C(OC3OC(C)C(OC4OC(C)C(O)C(OC5OC(C)C(OC6OC(C)C(O)C(OC7OC(C)C(OC8OC(C)C(O)C(OC9OC(C)C(OC%10OC(C)C(O)C(OC%11OC(C)C(O)C(OS(=O)(=O)O)C%11OS(=O)(=O)O)C%10OS(=O)(=O)O)C(OS(=O)(=O)O)C9OS(=O)(=O)O)C8OS(=O)(=O)O)C(OS(=O)(=O)O)C7OS(=O)(=O)O)C6OS(=O)(=O)O)C(OS(=O)(=O)O)C5OS(=O)(=O)O)C4OS(=O)(=O)O)C(OS(=O)(=O)O)C3OS(=O)(=O)O)C2OS(=O)(=O)O)C(OS(=O)(=O)O)C1OS(=O)(=O)O` (stereo not shown) is recorded as 0.9 fold (human plasma; 128 µg/mL; relative to: control).
`CCCCCc1ccc(S(=O)(=O)N2CC2C(=O)OC)cc1` (stereo not shown): “tumour growth inhibition” 68% (mouse, Lewis lung carcinoma; intraperitoneal, 5 mg/kg, 16 doses, day 11).
`COc1cc(O)ccc1CCC(c1ccc(O)cc1)c1cc2c(c(C)c1O)OC(c1ccc(O)cc1)CC2` (mixture of isomers) gave a PGE2 level of 26 ± 3 pg/mL (human blood; 1 µM, together with: A23187).
With `CN1CCC[C@]1(C)/C=C/S(=O)(=O)NC(=O)Nc1c2c(cc3c1CCC3)CCC2` the IL-1β inhibition was -0.5% (human, whole blood ex vivo; 50 mg twice daily, day 19, 108 h, multiple ascending dose, together with: LPS and ATP).
The thrombin time of `COC1OC(C)C(OC2OC(C)C(O)C(OC3OC(C)C(OC4OC(C)C(O)C(OC5OC(C)C(OC6OC(C)C(O)C(OC7OC(C)C(OC8OC(C)C(O)C(OC9OC(C)C(O)C(OS(=O)(=O)O)C9OS(=O)(=O)O)C8OS(=O)(=O)O)C(OS(=O)(=O)O)C7OS(=O)(=O)O)C6OS(=O)(=O)O)C(OS(=O)(=O)O)C5OS(=O)(=O)O)C4OS(=O)(=O)O)C(OS(=O)(=O)O)C3OS(=O)(=O)O)C2OS(=O)(=O)O)C(OS(=O)(=O)O)C1OS(=O)(=O)O` (stereo not shown) is reported as 9.6 ± 0.6 s (human plasma; 128 µg/mL).
For `COc1ccc(C(=O)CCc2cc(C(CCc3ccc(O)cc3OC)c3ccc(O)cc3)c(O)cc2OC)cc1` (racemic), the 5-HETE level was 4880 ± 2030 pg/mL (human blood; 1 µM, together with: A23187).
`CC(CCC(=O)NCc1ccc(C(=O)NO)cc1)C1CCC2C3C(O)CC4CC(O)CCC4(C)C3CCC12C` (stereo not shown) has a relative abundance of 3.1% (measured: GUDCA; PCK rat (Pkhd1 mutant), liver; oral gavage, dose not given, 5 months; relative to: total bile acids).
For `N#Cc1ccc(-c2cnc(C(=O)CCCCCCc3ccccc3)o2)nc1`, “duration of brain lipid amide elevation” read > 6 h (measured: AEA, OEA, PEA; mouse, brain; i.p., dose not given, 6 h time course).
Under “thrombin time prolongation”, `COC1OC(C)C(OS(=O)(=O)O)C(OC2OC(C)C(OS(=O)(=O)O)C(OC3OC(C)C(OS(=O)(=O)O)C(OS(=O)(=O)O)C3OS(=O)(=O)O)C2OS(=O)(=O)O)C1OS(=O)(=O)O` (stereo not shown) is recorded as 0.9 fold (human plasma; 128 µg/mL; relative to: control).
`O=C(N[C@@H](Cc1ccc(OCCCCC2CCNCC2)cc1)C(=O)O)c1nc2ccccc2o1.O=C(O)C(F)(F)F`: “aggregation impedance AUC” 10.9 a.u. and 7.3 a.u. (platelet aggregation, inhibitor, impedance aggregometry; human, whole blood, 1:1 saline; 150 nM, 6 min, 37 °C, together with: ADP 20 µM; higher = more aggregation).
`COC1OC(C)C(OC2OC(C)C(OS(=O)(=O)O)C(OC3OC(C)C(OC4OC(C)C(OS(=O)(=O)O)C(OC5OC(C)C(OC6OC(C)C(OS(=O)(=O)O)C(OS(=O)(=O)O)C6OS(=O)(=O)O)C(OS(=O)(=O)O)C5OS(=O)(=O)O)C4OS(=O)(=O)O)C(OS(=O)(=O)O)C3OS(=O)(=O)O)C2OS(=O)(=O)O)C(OS(=O)(=O)O)C1OS(=O)(=O)O` (stereo not shown) has a thrombin time of 10.8 ± 0.2 s (human plasma; 128 µg/mL).
`CCC(=O)N[C@@H](C)C(=O)OCC(=O)N[C@@H](C)C(=O)O`: “chain scission rate constant” 0.202 h⁻¹ (water; pH 8, 50 °C).
Under “thrombin time prolongation”, `COC1OC(C)C(OC2OC(C)C(OS(=O)(=O)O)C(OS(=O)(=O)O)C2OS(=O)(=O)O)C(OS(=O)(=O)O)C1OS(=O)(=O)O` (stereo not shown) is recorded as 1 fold (human plasma; 128 µg/mL; relative to: control).
For `COc1cc2c(NC3CCN(C(C)C)CC3)cc(N3CCOCC3)nc2cc1OCCCN1CCCC1`, “normalised protein abundance” read -0.0592 and -0.0385 and -0.0102 and -0.0704 and -0.0234 and -0.0479 and -0.0612 and -0.0418 (TMT quantitative proteomics, measured: MDH1 (cytoplasmic); 5xFAD mice, hippocampus; dose not given).
Under “thrombin time prolongation”, `COC1OC(C)C(O)C(OC2OC(C)C(O)C(OC3OC(C)C(O)C(OC4OC(C)C(O)C(OC5OC(C)C(O)C(OC6OC(C)C(O)C(OC7OC(C)C(O)C(OC8OC(C)C(O)C(OC9OC(C)C(O)C(OC%10OC(C)C(O)C(OC%11OC(C)C(O)C(OS(=O)(=O)O)C%11OS(=O)(=O)O)C%10OS(=O)(=O)O)C9OS(=O)(=O)O)C8OS(=O)(=O)O)C7OS(=O)(=O)O)C6OS(=O)(=O)O)C5OS(=O)(=O)O)C4OS(=O)(=O)O)C3OS(=O)(=O)O)C2OS(=O)(=O)O)C1OS(=O)(=O)O` (stereo not shown) is recorded as 0.9 fold (human plasma; 128 µg/mL; relative to: control).
`Cc1ccc(N(O)/N=N/c2ccc(S(=O)(=O)Nc3nccs3)cc2)cc1` has an inhibition of 30.8% (DPPH scavenging, absorbance; 180 µg/mL).
`COc1ccccc1-c1ccncc1C(=O)Nc1nnc(OCc2ccc(Cl)cc2)s1` has a colony survival of 82.2% (Brca1 Δ11/Δ11 MEF sgGFP, Mus musculus; 1.25 µM, mean of runs 2, 3; relative to: 0 µM).
`COC1OC(C)C(OC2OC(C)C(O)C(OC3OC(C)C(O)C(OS(=O)(=O)O)C3OS(=O)(=O)O)C2OS(=O)(=O)O)C(OS(=O)(=O)O)C1OS(=O)(=O)O` (stereo not shown) gave a thrombin time of 10.1 ± 0.8 s (human plasma; 128 µg/mL).
`S=C(S)OC1CC2CC1C1CCCC21` (stereo not shown): “maximum possible effect” 13.4% and 16.4% and 20% and 17.2% (hot plate; male ICR-CD1 mice; icv, 75 µg/animal, 15 min).

Excerpt of the above:
For `COc1ccc(C(=O)CCc2cc(C(CCc3ccc(O)cc3OC)c3ccc(O)cc3)c(O)cc2OC)cc1` (racemic), the 5-HETE level was 4880 ± 2030 pg/mL (human blood; 1 µM, together with: A23187).
`CC(=O)[O-].O.O.O.O.[Co+2].[O-]c1ccc(Br)cc1C=NCCN1CCOCC1` has an inhibition of 40.8% (nitric oxide scavenging; 200 µM).
